Results pooled from the literature.
Compare with care: the assays were run in different laboratories. ± marks the error that the study gave.
PPO3: PPO3 (Agaricus bisporus, UniProt C7FF04)
Chain of UniProt C7FF04 (whole entry, looked up): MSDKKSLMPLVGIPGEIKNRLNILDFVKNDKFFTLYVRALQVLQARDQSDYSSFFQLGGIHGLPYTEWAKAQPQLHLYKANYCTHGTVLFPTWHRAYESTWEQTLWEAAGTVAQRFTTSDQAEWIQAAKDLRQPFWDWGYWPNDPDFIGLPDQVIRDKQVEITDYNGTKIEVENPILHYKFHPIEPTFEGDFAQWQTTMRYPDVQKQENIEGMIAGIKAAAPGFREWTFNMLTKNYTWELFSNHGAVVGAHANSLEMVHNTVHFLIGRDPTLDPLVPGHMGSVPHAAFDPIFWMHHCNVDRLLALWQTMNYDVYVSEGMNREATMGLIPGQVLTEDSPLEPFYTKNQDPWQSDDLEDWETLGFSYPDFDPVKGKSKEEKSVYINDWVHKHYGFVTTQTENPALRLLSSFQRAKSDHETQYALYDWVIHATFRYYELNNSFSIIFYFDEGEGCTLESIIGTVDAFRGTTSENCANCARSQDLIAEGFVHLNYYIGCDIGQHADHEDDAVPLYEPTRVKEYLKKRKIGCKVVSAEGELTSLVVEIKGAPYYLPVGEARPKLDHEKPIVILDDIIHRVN
CNGA1: Cyclic nucleotide-gated channel alpha-1 (CNGA1, Bos taurus, UniProt Q00194)
Chain of UniProt Q00194 (whole entry, looked up): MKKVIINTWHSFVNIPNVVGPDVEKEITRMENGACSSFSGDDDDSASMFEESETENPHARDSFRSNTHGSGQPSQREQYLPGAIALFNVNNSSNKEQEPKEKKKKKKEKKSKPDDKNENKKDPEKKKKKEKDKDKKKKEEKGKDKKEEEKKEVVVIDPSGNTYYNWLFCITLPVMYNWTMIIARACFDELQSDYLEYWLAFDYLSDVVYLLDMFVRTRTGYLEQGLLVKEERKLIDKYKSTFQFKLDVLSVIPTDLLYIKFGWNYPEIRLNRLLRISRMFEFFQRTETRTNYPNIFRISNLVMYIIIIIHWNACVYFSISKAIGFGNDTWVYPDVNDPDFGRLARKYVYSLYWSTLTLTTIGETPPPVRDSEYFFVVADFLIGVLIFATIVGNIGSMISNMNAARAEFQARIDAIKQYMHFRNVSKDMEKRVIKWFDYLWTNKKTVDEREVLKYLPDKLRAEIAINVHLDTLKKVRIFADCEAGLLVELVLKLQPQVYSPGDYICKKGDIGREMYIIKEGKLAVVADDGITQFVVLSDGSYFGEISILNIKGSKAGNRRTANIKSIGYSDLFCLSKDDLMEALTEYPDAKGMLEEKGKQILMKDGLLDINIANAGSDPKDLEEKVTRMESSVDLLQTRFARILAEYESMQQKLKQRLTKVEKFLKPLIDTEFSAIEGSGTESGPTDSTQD
T1: dsDNA, hairpin; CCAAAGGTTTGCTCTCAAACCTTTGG
T2: DNA hairpin, hairpin, TTTT loop; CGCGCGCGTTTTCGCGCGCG
T3: RNA repeat, CUG repeat (Homo sapiens); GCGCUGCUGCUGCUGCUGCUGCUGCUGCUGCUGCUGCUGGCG
Chain of UniProt Q6UWW8 (whole entry, looked up): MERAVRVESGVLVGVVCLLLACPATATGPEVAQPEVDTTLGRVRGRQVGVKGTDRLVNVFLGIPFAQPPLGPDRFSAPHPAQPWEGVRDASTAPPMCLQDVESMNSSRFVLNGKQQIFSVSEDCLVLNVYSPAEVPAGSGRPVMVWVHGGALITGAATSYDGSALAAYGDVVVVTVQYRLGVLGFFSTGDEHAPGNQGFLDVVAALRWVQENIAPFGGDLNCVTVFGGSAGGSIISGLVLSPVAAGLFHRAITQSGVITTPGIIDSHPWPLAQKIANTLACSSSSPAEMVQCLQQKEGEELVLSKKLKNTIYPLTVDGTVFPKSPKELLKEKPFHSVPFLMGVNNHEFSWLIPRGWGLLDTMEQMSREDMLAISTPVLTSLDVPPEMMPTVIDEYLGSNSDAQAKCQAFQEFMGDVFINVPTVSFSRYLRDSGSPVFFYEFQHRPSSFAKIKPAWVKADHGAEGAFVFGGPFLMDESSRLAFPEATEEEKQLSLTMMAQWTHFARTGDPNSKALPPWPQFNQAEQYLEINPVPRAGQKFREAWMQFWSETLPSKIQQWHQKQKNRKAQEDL
Chain of UniProt Q13526 (whole entry, looked up): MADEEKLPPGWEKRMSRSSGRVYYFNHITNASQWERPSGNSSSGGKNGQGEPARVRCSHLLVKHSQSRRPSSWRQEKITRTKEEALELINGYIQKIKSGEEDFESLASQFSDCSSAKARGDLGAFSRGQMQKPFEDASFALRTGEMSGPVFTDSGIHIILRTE
Chain of UniProt P02699 (whole entry, looked up): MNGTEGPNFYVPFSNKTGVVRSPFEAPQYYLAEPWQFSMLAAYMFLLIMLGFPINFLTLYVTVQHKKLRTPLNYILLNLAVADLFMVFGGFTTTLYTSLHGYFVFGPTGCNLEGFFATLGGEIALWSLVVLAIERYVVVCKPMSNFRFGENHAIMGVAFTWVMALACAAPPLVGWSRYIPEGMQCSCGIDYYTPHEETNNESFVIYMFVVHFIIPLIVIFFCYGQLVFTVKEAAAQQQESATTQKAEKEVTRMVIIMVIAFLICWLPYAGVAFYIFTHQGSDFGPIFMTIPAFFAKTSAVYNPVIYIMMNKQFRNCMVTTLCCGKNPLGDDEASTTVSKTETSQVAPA
Chain of UniProt P11597 (whole entry, looked up): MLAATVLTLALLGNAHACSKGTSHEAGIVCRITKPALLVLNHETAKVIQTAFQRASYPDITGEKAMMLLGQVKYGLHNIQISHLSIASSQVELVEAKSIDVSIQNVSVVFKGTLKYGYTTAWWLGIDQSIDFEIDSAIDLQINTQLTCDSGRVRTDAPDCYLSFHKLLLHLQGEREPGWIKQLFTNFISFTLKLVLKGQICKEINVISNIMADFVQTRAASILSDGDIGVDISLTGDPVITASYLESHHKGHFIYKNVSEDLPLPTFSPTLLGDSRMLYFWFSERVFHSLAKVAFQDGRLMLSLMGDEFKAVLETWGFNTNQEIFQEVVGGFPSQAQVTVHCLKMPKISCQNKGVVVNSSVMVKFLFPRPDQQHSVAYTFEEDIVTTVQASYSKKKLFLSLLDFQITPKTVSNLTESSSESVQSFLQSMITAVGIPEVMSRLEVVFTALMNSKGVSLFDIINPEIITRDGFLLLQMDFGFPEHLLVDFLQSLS
Chain of UniProt P60900 (whole entry, looked up): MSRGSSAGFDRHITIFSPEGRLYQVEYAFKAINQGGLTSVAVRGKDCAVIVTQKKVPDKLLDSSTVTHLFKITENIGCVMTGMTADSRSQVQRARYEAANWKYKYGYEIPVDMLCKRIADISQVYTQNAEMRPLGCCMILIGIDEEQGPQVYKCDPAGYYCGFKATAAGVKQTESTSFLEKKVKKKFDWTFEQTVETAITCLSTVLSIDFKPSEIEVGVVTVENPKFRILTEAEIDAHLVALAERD
Chain of UniProt Q96P20 (whole entry, looked up): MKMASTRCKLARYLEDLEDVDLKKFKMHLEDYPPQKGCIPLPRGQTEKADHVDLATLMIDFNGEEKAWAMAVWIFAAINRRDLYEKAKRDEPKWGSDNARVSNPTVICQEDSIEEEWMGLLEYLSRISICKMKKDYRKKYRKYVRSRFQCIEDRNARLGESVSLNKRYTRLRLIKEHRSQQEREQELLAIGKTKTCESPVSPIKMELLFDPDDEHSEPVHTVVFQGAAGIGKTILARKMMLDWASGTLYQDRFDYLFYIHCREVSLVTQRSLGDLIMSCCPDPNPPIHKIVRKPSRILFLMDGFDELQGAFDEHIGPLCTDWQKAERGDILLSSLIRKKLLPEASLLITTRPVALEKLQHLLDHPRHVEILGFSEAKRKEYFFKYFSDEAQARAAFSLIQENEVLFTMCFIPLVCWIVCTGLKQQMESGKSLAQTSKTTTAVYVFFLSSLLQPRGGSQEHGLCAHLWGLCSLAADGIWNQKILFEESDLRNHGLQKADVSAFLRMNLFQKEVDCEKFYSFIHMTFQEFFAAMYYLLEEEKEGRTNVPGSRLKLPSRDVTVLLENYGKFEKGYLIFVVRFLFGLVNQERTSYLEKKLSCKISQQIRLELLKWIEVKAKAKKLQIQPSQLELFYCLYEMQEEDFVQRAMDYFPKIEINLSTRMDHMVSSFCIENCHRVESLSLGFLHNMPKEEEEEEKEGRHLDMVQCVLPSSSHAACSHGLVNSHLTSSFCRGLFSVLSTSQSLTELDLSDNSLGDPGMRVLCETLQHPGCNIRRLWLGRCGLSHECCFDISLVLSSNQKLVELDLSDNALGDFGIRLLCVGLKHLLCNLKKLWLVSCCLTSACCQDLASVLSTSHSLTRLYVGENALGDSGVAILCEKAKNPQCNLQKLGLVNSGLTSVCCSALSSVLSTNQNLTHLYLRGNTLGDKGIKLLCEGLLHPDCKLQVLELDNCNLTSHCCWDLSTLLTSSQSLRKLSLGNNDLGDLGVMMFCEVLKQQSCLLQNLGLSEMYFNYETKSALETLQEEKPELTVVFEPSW
Chain of UniProt P25787 (whole entry, looked up): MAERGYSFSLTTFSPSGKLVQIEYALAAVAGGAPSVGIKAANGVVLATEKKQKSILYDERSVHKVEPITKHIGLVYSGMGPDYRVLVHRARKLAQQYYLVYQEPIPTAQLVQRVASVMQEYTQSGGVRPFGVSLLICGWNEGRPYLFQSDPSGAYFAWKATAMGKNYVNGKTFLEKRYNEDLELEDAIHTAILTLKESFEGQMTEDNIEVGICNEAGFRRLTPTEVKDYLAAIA
Chain of UniProt P09936 (whole entry, looked up): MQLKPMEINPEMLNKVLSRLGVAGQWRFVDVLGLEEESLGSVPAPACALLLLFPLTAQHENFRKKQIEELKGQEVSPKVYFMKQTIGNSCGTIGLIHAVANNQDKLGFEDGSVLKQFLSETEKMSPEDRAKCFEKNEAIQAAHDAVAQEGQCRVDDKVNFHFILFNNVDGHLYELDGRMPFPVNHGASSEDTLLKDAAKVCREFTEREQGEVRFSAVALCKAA

`Cc1ccc(-c2ccccn2)cc1C(=O)NCCCCCCCCNC(=O)CNC(=O)CNC(=O)[C@H](CCCCN)NC(=O)[C@H](CCCCN)NC(=O)[C@@H](N)CCCCN`: “apparent association constant” 910000 ± 10000 M⁻¹ (Calmodulin-1 (CALM1, Homo sapiens, UniProt P0DP23); binding, quartz crystal microbalance; 25 °C, no Ca2+).
The growth percent of `COc1cc(CNC(=O)C[C@H](C)CCC=C(C)C)ccc1OCc1cn(-c2ccccc2F)nn1` is reported as 66.5% (OVCAR-8 ovarian cancer cells; SRB; 10 µM, 48 h).
`CC(C)n1c(-c2ccc(C(=N)N)s2)nc2cc(-c3ccc4c(c3)nc(-c3ccc(C(=N)N)s3)n4C(C)C)ccc21` gave a Kd of 553 nM (T1, dsDNA, hairpin; SPR; pH 7.4, Na+ 100 mM).
For `CC[C@H](C)[C@H](NC(=O)[C@H](CCCCN)NC(=O)[C@H](CCCCN)NC(=O)[C@@H](NC(=O)[C@H](CCC(=O)O)NC(=O)[C@H](CCC(=O)O)NC(=O)[C@H](CCC(=O)O)NC(=O)[C@H](CO)NC(=O)[C@H](CC(C)C)NC(=O)[C@H](CC(=O)O)NC(=O)[C@H](CC(C)C)NC(=O)CNC(=O)[C@H](CCCNC(=N)N)NC(=O)[C@H](CC(C)C)NC(=O)[C@H](CO)NC(=O)CNC(=O)CNC(=O)CNC(=O)CCCC[C@@H]1SC[C@@H]2NC(=O)N[C@@H]21)C(C)C)C(=O)N[C@@H](CC(C)C)C(=O)N[C@@H](CC(=O)O)C(=O)N[C@@H](CCC(=O)O)C(=O)N[C@H](C(=O)N[C@H](C(=O)N[C@@H](CCCCN)C(=O)N[C@@H](CC(=O)O)C(=O)N[C@@H](C)C(=O)N[C@@H](CO)C(=O)N[C@@H](CC(=O)O)C(=O)O)C(C)C)[C@@H](C)CC`, the Kd ratio was 0.9 (Fab B11 antibody (human); binding, biolayer interferometry; reference: alanine mutant over wild type).
`NC(=O)C[C@H](NC(=O)[C@H](CC(N)=O)NC(=O)[C@H](CCC(=O)O)NC(=O)[C@@H](N)CS)C(=O)O` gave a remaining activity of 37% (PPO3; enzyme activity, inhibitor; 200 µM).
For `[3H]C([3H])([3H])Nc1ccc(-c2nc3ccc(O)cc3o2)cn1`, “grey to white matter binding ratio” read “increased” (autoradiography, measured: amyloid-β plaques; human AD brain sections; 3 nM; reference: grey over white matter).
With `O=C(O)Cc1ccccc1O` the ΔH was -8.78 ± 0.91 kcal/mol (p-hydroxyphenylacetate 3-hydroxylase, reductase component (C1-hpah, Acinetobacter baumannii, UniProt Q6Q271); ITC; pH 7).
`CC1=C(/C=C/C(C)=C/C=C/C(C)=C/C=C/C=O)C(C)(C)CCC1` gave a Hill coefficient of 2.5 (CNGA1; cGMP-activated current, inhibitor, inside-out patch clamp; Xenopus oocytes; +100 mV, added: 2 mM cGMP).
`CCNC(=O)[C@H](CC(C)C)NC(=O)[C@H](Cc1c[nH]cn1)NC(=O)CNC(=O)[C@@H](NC(=O)[C@H](C)NC(=O)[C@H](Cc1c[nH]c2ccccc12)NC(=O)[C@H](CCC(N)=O)NC(=O)[C@H](N)Cc1ccccc1)C(C)C` has a calcium release of 22.3 ± 16.8 RFU (Gastrin-releasing peptide receptor (GRPR, Homo sapiens, UniProt P30550); FLIPR calcium; PC-3; 5 nM).
With `CC(C)C[C@H](NC(=O)[C@@H]1CCCN1)C(=O)N[C@@H](CO)C(=O)N[C@@H](CC(C)C)C(=O)N[C@@H](CCCNC(=N)N)C(=O)N[C@@H](CO)C(=O)N[C@@H](CCCCN)C(=O)O` the hydrolysis product was 74% (Matrix metalloproteinase-9 (MMP9, Homo sapiens, UniProt P14780); substrate, HPLC; 500 µM, 72 h, pH 7.5, 37 °C).
For `[Ru+2].[Ru+2].c1cnc2c(c1)c1nc(-c3ccc(OCCOCCOCCOCCOc4ccc(-c5nc6c7cccnc7c7ncccc7c6[nH]5)cc4)cc3)[nH]c1c1cccnc12.c1cnc2c(ccc3nccnc32)n1.c1cnc2c(ccc3nccnc32)n1.c1cnc2c(ccc3nccnc32)n1.c1cnc2c(ccc3nccnc32)n1`, the Kd was 960 nM (T2, DNA hairpin, hairpin, TTTT loop; BLI; pH 7.04, Na+ 100 mM).
For `COc1ccc(NC(=O)CCc2ccccc2)c(C)n1`, the specific activity was < 1 pmol/min/µg (Carboxylesterase 3 (CES3, Homo sapiens, UniProt Q6UWW8); substrate; 50 µM, pH 8, 37 °C, enzyme purity 3%).
Under DUB activity, `N#CN1CC[C@H](C(=O)Nc2ncc(N3CCOCC3)s2)C1` is recorded as “decreased” (Ubiquitin carboxyl-terminal hydrolase isozyme L1 (UCHL1, Homo sapiens, UniProt P09936); probe labeling, inhibitor; A549; 5 µM, added: Rh-Ub-PA probe; reference: control).
For `COc1cc(CNC(=O)C[C@H](C)CCC=C(C)C)ccc1OCc1cn(-c2ccc(C#N)cc2)nn1`, the growth percent was 54% (SF-295 CNS cancer cells; SRB; 10 µM, 48 h).
Under “onset of degradation”, `O=C(CSc1nc2ccccc2s1)Nc1nonc1[N+](=O)[O-]` is recorded as ~2 h (Protein max (MAX, Homo sapiens, UniProt P61244); degrader, Western blot; Ramos).
Under co-immunoprecipitation, `Clc1ccc2ccc3[n+](c2c1)[Ir-3]12([c]4ccccc4-3)([c]3ccccc3-c3ccc4ccc(Cl)cc4[n+]31)[n+]1ccccc1-c1cccc[n+]12.F[P-](F)(F)(F)(F)F` is recorded as “no effect” (Cyclin-dependent kinase 7, with cyclin H (CDK7, Homo sapiens, UniProt P50613); MDA-MB-231; 3 µM, 4 h).
With `O=C1CC(c2ccc(O)cc2)Oc2cc(O)cc([O][Ga+][O]c3cc(O)cc4c3C(=O)CC(c3ccc(O)cc3)O4)c21` (centres unmarked) the inhibition was 89% (Pseudomonas aeruginosa; elastase secretion, elastin-Congo red; 0.08 µM, 20 h).
For `COc1cc(F)c(C(C)C)cc1C1=C(CN2C(=O)O[C@H](c3cc(C(F)(F)F)cc(C(F)(F)F)c3)[C@@H]2C)CC(C)(C)CC1`, “time of maximum inhibition” read 7 h (Cholesteryl ester transfer protein (Homo sapiens, UniProt P11597); enzyme activity; healthy male subjects, plasma; oral, 200 mg single dose).
For `CC(C)C[C@H](NC(=O)[C@H](CC(N)=O)NC(=O)[C@H](CCCNC(=N)N)NC(=O)[C@@H](N)CS)C(=O)O`, the remaining activity was 3.69% (PPO3; enzyme activity, inhibitor; 200 µM).
For `Cc1ncsc1-c1ccc([C@@H]2CCCCCCNC(=O)C[C@@H]3N=C(c4ccc(cc4)OCCCCC(=O)N[C@@H](C(C)(C)C)C(=O)N4C[C@H](O)C[C@H]4C(=O)N2)c2c(sc(C)c2C)-n2c(C)nnc23)cc1`, the degradation was 94% (Bromodomain-containing protein 4, long isoform (BRD4, Homo sapiens, UniProt O60885); degrader, immunoblotting, measured: BRD4 long isoform; PC-3; 100 nM, 24 h).
For `CCOC(=O)[C@H](CCCNC(N)=O)NC(=O)[C@H](Cc1c[nH]c2ccccc12)NC(=O)[C@@H]1CCCCN1C(=O)[C@H](Cc1ccccc1)N(C)C(=O)CCl`, the kinact was 0.00133 s⁻¹ (Peptidyl-prolyl cis-trans isomerase NIMA-interacting 1 (PIN1, Homo sapiens, UniProt Q13526); ligand displacement, FP).
`Cc1cc(N2CCC(CO)(C3CC3)C2=O)cc(C(=O)NCc2cc(F)cc(-c3cnn(C)c3)c2)n1` (centres unmarked) gave a melting temperature of 69.7 °C (Proline--tRNA ligase (Plasmodium falciparum, UniProt Q8I5R7); thermal shift; added: ATP 2 mM).
`CC(C)c1c(-c2cccc3[nH]ccc23)[nH]c(C(=O)O)c1-c1c(Cl)ccc2[nH]ccc12` — result for binding: “no binding” (bromodomain and chromodomain panel; 25 µM, 1 h).
For `C#CCCN(CCCl)c1ccc(CCCC(=O)Nc2cccc(-c3cn4c(n3)C(C)CCC4)c2)cc1` (centres unmarked), binding read “binds weakly” (T3, RNA repeat, CUG repeat (Homo sapiens); TAMRA click labeling gel; 18 h, pH 7.4, 37 °C, covalent).
Under “maximum fold increase”, `O=C(CN1CCOc2ccccc21)N(c1ccc(F)cc1)c1ccc(F)cc1` is recorded as 5.1 ± 0.9 (Proteasome subunit alpha type-2/Proteasome subunit alpha type-6, 20S proteasome (Homo sapiens, UniProt P25787+P60900); proteolysis, activator, fluorogenic peptide; purified 20S proteasome; up to 30 µM, added: Suc-LLVY-AMC, Z-LLE-AMC, Boc-LRR-AMC; reference: vehicle).
For `CC1=C(/C=C/C(C)=C/C=C/C(C)=C/C=O)C(C)(C)CCC1`, the Hill coefficient was 1.4 (CNGA1; ion current, inhibitor, inside-out patch clamp; +100 mV, added: cGMP 2 mM).
`CC(C)CC(NC(=O)C(NC(=O)NC(C(=O)O)C(C)C)C1CCNC(=N)N1)C(=O)NCCCNC(C(=O)O)C(OC1OC(CN)C(O)C1O)C1OC(n2ccc(=O)[nH]c2=O)C(O)C1O` (centres unmarked) gave a ΔS of -0.7 ± 2.2 cal/mol/K (Phospho-N-acetylmuramoyl-pentapeptide-transferase (mraY, Aquifex aeolicus, UniProt O66465, F262W); ITC; F262W mutant).
With `CC1=C(/C=C/C=C\C=C\C(C)=C\C=O)C(C)(C)CCC1` the melting temperature was 70.1 °C (Rhodopsin, apoprotein (opsin) (RHO, Bos taurus, UniProt P02699); regenerated pigment stability, thermal shift, BFC probe; ROS disk membranes).
For `O=C(O)c1ccc(/C=C2\SC(=S)N(Cc3cccc(C(F)(F)F)c3)C2=O)cc1`, ATPase activity read “inhibited” (NACHT, LRR and PYD domains-containing protein 3 (NLRP3, Homo sapiens, UniProt Q96P20); enzyme activity, inhibitor; 0.1 to 1 µM).

For quick reference, copied from above:
With `CC(C)C[C@H](NC(=O)[C@@H]1CCCN1)C(=O)N[C@@H](CO)C(=O)N[C@@H](CC(C)C)C(=O)N[C@@H](CCCNC(=N)N)C(=O)N[C@@H](CO)C(=O)N[C@@H](CCCCN)C(=O)O` the hydrolysis product was 74% (Matrix metalloproteinase-9 (MMP9, Homo sapiens, UniProt P14780); substrate, HPLC; 500 µM, 72 h, pH 7.5, 37 °C).
For `[Ru+2].[Ru+2].c1cnc2c(c1)c1nc(-c3ccc(OCCOCCOCCOCCOc4ccc(-c5nc6c7cccnc7c7ncccc7c6[nH]5)cc4)cc3)[nH]c1c1cccnc12.c1cnc2c(ccc3nccnc32)n1.c1cnc2c(ccc3nccnc32)n1.c1cnc2c(ccc3nccnc32)n1.c1cnc2c(ccc3nccnc32)n1`, the Kd was 960 nM (T2, DNA hairpin, hairpin, TTTT loop; BLI; pH 7.04, Na+ 100 mM).
